Experimental data pooled from the literature.
Lines come from different studies, so protocols differ. Numbers after ± are the reported error.
Serine protease HTRA1 PDZ domain: Serine protease HTRA1, PDZ domain (Homo sapiens, UniProt Q92743)
UniProt Q92743, sequence (whole entry, looked up): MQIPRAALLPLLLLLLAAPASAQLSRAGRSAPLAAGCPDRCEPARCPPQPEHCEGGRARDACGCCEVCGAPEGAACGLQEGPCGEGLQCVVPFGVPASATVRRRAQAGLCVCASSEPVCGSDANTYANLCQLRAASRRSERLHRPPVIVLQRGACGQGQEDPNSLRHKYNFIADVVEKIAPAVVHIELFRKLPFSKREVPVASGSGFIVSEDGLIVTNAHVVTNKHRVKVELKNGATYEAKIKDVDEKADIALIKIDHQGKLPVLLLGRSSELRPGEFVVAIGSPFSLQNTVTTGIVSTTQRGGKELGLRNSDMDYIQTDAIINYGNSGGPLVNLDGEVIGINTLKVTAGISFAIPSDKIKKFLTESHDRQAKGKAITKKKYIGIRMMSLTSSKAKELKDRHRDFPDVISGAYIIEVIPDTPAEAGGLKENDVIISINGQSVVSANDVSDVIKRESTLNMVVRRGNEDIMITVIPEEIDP
STAT1 SH2 domain: Signal transducer and activator of transcription 1-alpha/beta, SH2 domain (STAT1, Homo sapiens, UniProt P42224)
UniProt P42224, sequence (whole entry, looked up): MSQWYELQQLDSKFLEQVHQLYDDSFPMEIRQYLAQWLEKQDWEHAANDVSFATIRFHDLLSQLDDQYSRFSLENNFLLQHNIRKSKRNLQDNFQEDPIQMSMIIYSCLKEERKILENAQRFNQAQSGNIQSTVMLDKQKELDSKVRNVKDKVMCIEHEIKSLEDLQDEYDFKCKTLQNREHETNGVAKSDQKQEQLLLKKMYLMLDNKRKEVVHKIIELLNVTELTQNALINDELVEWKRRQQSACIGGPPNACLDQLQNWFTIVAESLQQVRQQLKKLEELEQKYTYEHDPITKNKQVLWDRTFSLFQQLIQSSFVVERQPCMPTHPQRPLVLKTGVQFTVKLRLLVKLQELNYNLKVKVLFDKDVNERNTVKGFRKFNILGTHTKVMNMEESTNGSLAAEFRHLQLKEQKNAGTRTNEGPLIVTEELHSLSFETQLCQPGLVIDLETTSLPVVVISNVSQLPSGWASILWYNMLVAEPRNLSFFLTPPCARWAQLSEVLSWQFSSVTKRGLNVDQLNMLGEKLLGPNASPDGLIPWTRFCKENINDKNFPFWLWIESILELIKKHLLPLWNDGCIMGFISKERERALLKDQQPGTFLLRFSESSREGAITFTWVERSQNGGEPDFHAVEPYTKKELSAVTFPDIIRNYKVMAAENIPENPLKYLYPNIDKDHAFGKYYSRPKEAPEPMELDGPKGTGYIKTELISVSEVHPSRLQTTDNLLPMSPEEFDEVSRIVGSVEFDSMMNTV
RASA1 SH2 domains: Ras GTPase-activating protein 1, SH2 domains (RASA1, Homo sapiens, UniProt P20936)
UniProt P20936, sequence (whole entry, looked up): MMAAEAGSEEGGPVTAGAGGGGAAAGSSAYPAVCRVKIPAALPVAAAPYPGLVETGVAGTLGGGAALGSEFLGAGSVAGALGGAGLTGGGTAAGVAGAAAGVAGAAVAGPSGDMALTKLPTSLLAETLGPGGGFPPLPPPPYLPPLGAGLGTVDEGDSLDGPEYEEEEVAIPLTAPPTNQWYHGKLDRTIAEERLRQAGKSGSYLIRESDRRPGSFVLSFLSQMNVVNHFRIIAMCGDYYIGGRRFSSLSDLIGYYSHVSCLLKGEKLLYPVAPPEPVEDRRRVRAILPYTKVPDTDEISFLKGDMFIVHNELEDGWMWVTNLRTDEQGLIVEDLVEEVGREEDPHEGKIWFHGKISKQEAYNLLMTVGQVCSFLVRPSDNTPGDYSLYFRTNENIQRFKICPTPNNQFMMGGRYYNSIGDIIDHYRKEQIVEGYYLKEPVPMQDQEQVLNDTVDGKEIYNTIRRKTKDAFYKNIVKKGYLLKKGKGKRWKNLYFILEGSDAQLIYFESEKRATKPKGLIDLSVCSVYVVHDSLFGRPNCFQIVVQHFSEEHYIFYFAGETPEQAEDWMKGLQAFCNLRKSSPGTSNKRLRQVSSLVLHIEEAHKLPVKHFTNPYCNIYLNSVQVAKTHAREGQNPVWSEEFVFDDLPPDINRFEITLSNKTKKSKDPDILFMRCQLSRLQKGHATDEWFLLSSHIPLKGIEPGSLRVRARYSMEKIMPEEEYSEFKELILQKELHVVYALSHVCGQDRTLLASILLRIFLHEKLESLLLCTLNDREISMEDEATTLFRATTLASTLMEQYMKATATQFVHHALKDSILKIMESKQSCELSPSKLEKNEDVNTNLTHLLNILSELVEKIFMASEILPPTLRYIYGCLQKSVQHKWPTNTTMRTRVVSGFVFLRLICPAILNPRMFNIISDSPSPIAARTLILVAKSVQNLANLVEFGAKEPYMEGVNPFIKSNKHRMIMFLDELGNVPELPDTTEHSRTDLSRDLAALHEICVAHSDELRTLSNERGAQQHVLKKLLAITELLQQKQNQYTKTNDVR
UniProt Q9SCZ4, sequence (whole entry, looked up): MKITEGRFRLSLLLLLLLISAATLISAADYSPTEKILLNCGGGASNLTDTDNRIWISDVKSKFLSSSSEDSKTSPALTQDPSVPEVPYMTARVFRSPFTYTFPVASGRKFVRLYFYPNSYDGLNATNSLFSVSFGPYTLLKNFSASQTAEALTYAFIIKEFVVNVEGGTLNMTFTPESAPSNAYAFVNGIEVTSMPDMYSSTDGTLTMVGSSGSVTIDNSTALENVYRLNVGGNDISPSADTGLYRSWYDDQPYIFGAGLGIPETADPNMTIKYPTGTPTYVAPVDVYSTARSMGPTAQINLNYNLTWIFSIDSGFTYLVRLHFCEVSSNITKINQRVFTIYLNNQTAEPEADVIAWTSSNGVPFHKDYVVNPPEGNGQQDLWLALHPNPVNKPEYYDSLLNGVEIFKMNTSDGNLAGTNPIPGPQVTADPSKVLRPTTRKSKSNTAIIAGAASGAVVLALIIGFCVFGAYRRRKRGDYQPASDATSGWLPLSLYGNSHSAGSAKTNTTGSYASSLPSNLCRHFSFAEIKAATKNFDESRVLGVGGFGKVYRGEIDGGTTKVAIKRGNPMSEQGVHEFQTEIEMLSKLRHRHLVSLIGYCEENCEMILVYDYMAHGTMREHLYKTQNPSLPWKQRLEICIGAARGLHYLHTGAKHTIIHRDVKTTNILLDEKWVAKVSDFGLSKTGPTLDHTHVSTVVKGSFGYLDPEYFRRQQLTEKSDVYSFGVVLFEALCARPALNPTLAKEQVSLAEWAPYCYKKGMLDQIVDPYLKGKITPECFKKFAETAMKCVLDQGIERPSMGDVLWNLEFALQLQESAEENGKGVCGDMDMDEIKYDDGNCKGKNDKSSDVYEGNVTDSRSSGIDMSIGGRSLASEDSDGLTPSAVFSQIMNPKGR
UniProt Q9X6J6, sequence (whole entry, unmodified, looked up): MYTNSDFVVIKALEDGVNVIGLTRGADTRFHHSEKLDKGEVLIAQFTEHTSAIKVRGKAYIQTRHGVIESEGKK
UniProt P00519, sequence (whole entry, looked up): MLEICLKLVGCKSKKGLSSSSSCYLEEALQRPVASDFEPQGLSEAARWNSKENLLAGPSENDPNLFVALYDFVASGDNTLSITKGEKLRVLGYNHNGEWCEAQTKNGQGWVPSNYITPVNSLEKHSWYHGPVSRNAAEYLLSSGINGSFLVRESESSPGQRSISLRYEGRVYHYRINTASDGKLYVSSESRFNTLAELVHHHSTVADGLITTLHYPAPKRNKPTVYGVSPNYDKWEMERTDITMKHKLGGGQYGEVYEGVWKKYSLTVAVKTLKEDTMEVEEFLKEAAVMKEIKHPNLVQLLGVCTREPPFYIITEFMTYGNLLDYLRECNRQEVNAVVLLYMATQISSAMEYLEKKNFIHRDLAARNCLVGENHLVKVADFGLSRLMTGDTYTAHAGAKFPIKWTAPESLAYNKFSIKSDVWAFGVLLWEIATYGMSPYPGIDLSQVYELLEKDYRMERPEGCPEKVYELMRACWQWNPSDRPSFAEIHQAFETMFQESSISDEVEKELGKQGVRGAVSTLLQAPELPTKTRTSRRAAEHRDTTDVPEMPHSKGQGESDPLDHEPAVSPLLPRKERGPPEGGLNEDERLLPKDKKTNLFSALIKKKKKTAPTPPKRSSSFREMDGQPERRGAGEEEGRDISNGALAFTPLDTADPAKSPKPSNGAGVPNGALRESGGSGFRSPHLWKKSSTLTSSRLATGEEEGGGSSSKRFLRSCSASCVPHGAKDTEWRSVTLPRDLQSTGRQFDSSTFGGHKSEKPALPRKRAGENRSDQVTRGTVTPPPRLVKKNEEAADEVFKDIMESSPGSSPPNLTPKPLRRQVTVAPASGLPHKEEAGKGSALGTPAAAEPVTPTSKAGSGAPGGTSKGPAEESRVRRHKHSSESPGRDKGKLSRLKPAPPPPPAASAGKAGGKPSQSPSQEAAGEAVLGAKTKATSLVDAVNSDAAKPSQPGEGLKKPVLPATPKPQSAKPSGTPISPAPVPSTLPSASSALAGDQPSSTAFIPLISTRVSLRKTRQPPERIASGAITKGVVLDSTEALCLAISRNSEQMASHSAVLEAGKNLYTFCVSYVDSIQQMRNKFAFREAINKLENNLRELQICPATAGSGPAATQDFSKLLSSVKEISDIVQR
UniProt Q9NWS0, sequence (1-180, unmodified, looked up): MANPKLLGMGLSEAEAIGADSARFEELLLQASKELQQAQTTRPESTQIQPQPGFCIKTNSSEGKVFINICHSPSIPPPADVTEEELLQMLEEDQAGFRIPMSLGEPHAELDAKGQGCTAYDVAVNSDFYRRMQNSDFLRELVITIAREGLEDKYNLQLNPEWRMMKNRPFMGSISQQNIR
UniProt Q9NWS0, sequence (51-180, unmodified, looked up): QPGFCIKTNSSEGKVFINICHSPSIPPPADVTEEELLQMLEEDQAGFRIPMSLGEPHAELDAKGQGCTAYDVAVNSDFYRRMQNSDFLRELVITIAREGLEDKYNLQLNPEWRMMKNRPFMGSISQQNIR

Structure (SMILES) = N[C@@H](Cc1c[nH]c2ccccc12)C(=O)O; target = Transcription attenuation protein MtrB, Δ71 truncation (mtrB, Geobacillus stearothermophilus, UniProt Q9X6J6); test = circular dichroism titration; conditions = pH 8, 2 µM TRAP rings; Kd = 4 ± 0.4 µM
Structure (SMILES) = CC(C)C[C@H](NC(=O)[C@H](CO)NC(=O)[C@H](CCC(=O)O)NC(=O)[C@@H](NC(=O)[C@H](CC(C)C)NC(=O)[C@H](CC(=O)O)NC(=O)[C@H](CC(=O)O)NC(=O)[C@H](CC(=O)O)NC(=O)[C@@H](NC(=O)[C@H](Cc1c[nH]c2ccccc12)NC(=O)[C@@H](N)CCC(=O)O)[C@@H](C)O)C(C)C)C(=O)O; target = Serine protease HTRA1 PDZ domain; test = isothermal titration calorimetry; test system = isolated PDZ domain; conditions = pH 8.0; Kd = 37.3 µM
Structure (SMILES) = CC(C)C[C@H](NC(=O)[C@@H](N)CC(=O)O)C(=O)N[C@@H](CC(=O)O)C(=O)N[C@@H](COP(=O)(O)O)C(=O)N[C@@H](CC(=O)O)C(=O)N[C@@H](CC(=O)O)C(=O)N[C@@H](CCC(=O)O)C(=O)N[C@@H](Cc1ccc(O)cc1)C(=O)O; target = PIH1 domain-containing protein 1, residues 51-180 (PIH1D1, Homo sapiens, UniProt Q9NWS0, K57A); test = ITC; conditions = 20 °C, mutant protein; Kd = > 112 µM
Structure (SMILES) = CSCC[C@H](NC(=O)[C@H](CC(=O)O)NC(=O)c1ccc2c(c1)C(=O)OC21c2ccc(N(C)C)cc2Oc2cc(N(C)C)ccc21)C(=O)N[C@@H](CO)C(=O)N[C@@H](CCCCN)C(=O)N[C@@H](CC(=O)O)C(=O)N[C@@H](CCC(=O)O)C(=O)N[C@@H](CO)C(=O)N[C@H](C(=O)N[C@@H](CC(=O)O)C(=O)N[C@@H](Cc1ccc(OP(=O)(O)O)cc1)C(=O)N[C@H](C(=O)N1CCC[C@H]1C(=O)N[C@@H](CCSC)C(=O)N[C@@H](CC(C)C)C(=O)N[C@@H](CC(=O)O)C(=O)N[C@@H](CCSC)C(=O)N[C@@H](CCCCN)C(=O)N[C@@H](CC(=O)O)C(=O)O)C(C)C)C(C)C; target = STAT1 SH2 domain; test = binding; Kd = 0.433 µM
Structure (SMILES) = O=C(O)CCCN1CC=C(c2ccccc2)CC1; target = Protein deacetylase HDAC6, ZnF-UBD domain (HDAC6, Homo sapiens, UniProt Q9UBN7); Kd = > 1000 µM
Structure (SMILES) = CC(C)C[C@H](NC(=O)[C@H](CCC(=O)O)NC(=O)[C@H](Cc1c[nH]cn1)NC(=S)Nc1ccc2c(c1)C(=O)OC21c2ccc(O)cc2Oc2cc(O)ccc21)C(=O)N[C@@H](C)C(=O)N1CCC[C@H]1C(=O)N[C@H](C(=O)N[C@@H](CO)C(=O)N[C@H](C(=O)N[C@@H](Cc1c[nH]cn1)C(=O)O)C(C)C)C(C)C; target = Lon protease, N-terminal domain (1-206) (lon, Caulobacter vibrioides, UniProt P0CAW0); test = binding, fluorescence polarisation; conditions = added: FITC-labelled degron peptide; Kd = 101 µM
Structure (SMILES) = N[C@H](Cc1ccccc1)C(=O)O; target = PAL1 (Petroselinum crispum, UniProt P24481, Y110F); test = ITC; Kd = 29.2 µM
Structure (SMILES) = CC(=O)c1cnc2ccc(-c3cc(Cl)c(O)c(Cl)c3)nc2c1N[C@H]1CC[C@H](CN(C)C)CC1; target = Receptor-like protein kinase FERONIA (FER, Arabidopsis thaliana, UniProt Q9SCZ4); test = binding, SPR steady-state; conditions = kinase domain; Kd = 0.4 µM
Structure (SMILES) = O=C1c2ccccc2C(=O)c2ccccc21; target = Reaction center protein M chain, QA site (pufM, Cereibacter sphaeroides, UniProt P0C0Y9); test = QA site binding; Kd = < 0.2 µM
Structure (SMILES) = CC[C@H](C)[C@H](NC(=O)[C@H](CCC(N)=O)NC(=O)[C@H](Cc1c[nH]cn1)NC(=O)c1ccc2c(c1)C(=O)OC21c2ccc(N(C)C)cc2Oc2cc(N(C)C)ccc21)C(=O)N[C@@H](CO)C(=O)N[C@@H](CC(C)C)C(=O)N[C@@H](CC(=O)O)C(=O)N[C@@H](CC(N)=O)C(=O)N1CCC[C@H]1C(=O)N[C@@H](CC(=O)O)C(=O)N[C@@H](Cc1ccc(OP(=O)(O)O)cc1)C(=O)N[C@@H](CCC(N)=O)C(=O)N[C@@H](CCC(N)=O)C(=O)N[C@@H](CC(=O)O)C(=O)N[C@@H](Cc1ccccc1)C(=O)N[C@@H](Cc1ccccc1)C(=O)N1CCC[C@H]1C(=O)N[C@@H](CCCCN)C(=O)N[C@@H](CC(=O)O)C(=O)O; target = RASA1 SH2 domains; test = binding; Kd = 1.14 µM
Structure (SMILES) = C[C@H]1[C@H](NC(=O)/C(=N\OC(C)(C)C(=O)O)c2csc(N)n2)C(=O)N1S(=O)(=O)O; target = beta-lactamase CMY-6 (Klebsiella pneumoniae); test = binding, surface plasmon resonance; Kd = 64.8 µM
Structure (SMILES) = CSCC[C@H](NC(=O)CNC(=O)[C@H](Cc1ccccc1)NC(=O)[C@H](CC(=O)O)NC(=O)CNC(=O)c1ccc2c(c1)C(=O)OC21c2ccc(N(C)C)cc2Oc2cc(N(C)C)ccc21)C(=O)N[C@@H](CO)C(=O)N[C@@H](CCCNC(=N)N)C(=O)N[C@@H](CC(=O)O)C(=O)N[C@H](C(=O)N[C@@H](Cc1ccc(OP(=O)(O)O)cc1)C(=O)N[C@@H](CO)C(=O)N[C@H](C(=O)N[C@@H](CC(=O)O)C(=O)N[C@@H](Cc1ccc(O)cc1)C(=O)N[C@@H](Cc1ccc(O)cc1)C(=O)N[C@@H](CCCNC(=N)N)C(=O)N[C@H](C(=O)N[C@@H](CC(=O)O)C(=O)O)C(C)C)[C@@H](C)O)C(C)C; target = Tyrosine-protein kinase ABL1, SH2 domain (ABL1, Homo sapiens, UniProt P00519); test = binding; Kd = 0.841 µM
Structure (SMILES) = CN(CC(=O)O)C(=N)NP(=O)(O)O; target = CKMT1A (Homo sapiens, UniProt P12532, E264A); test = microscale thermophoresis; conditions = pH 7.0, E226A mutant, no substrate; Kd = 511 ± 270 µM
Structure (SMILES) = CC[C@H](C)[C@H](NC(=O)[C@H](Cc1ccc(O)cc1)NC(=O)[C@H](CCC(=O)O)NC(=O)[C@H](Cc1c[nH]cn1)NC(=O)CNC(=O)[C@H](CC(=O)O)NC(=O)[C@H](CO)NC(=O)[C@H](CO)NC(=O)[C@@H](NC(=O)c1ccc2c(c1)C(=O)OC21c2ccc(N(C)C)cc2Oc2cc(N(C)C)ccc21)C(C)C)C(=O)N[C@@H](Cc1ccc(OP(=O)(O)O)cc1)C(=O)N[C@H](C(=O)N[C@@H](CC(=O)O)C(=O)N1CCC[C@H]1C(=O)N[C@@H](CCSC)C(=O)N[C@@H](CCC(N)=O)C(=O)N[C@@H](CC(C)C)C(=O)N1CCC[C@H]1C(=O)N[C@@H](CC(=O)O)C(=O)O)C(C)C; target = RASA1 SH2 domains; test = binding; Kd = 0.244 µM
Structure (SMILES) = CN1C2CCCC1CC(NC(=O)c1nn(C)c3ccccc13)C2 (stereo not shown); target = Soluble acetylcholine receptor (Aplysia californica, UniProt Q8WSF8, K160T/Q74R/S111E/V159L/Y212F); test = homologous radioligand competition; Kd = 0.298 ± 0.012 µM
Structure (SMILES) = CSCC[C@H](NC(=O)[C@H](Cc1ccc(OP(=O)(O)O)cc1)NC(=O)CNC(=O)CNC(=O)[C@H](CC(=O)O)NC(=O)[C@H](CO)NC(=O)[C@H](CCC(=O)O)NC(=O)CNC(=O)[C@@H](NC(=O)[C@H](CC(C)C)NC(=O)[C@H](CO)NC(=O)c1ccc2c(c1)C(=O)OC21c2ccc(N(C)C)cc2Oc2cc(N(C)C)ccc21)[C@@H](C)O)C(=O)N[C@@H](CC(=O)O)C(=O)N[C@@H](CCSC)C(=O)N[C@@H](CO)C(=O)N[C@@H](CCCCN)C(=O)N[C@@H](CC(=O)O)C(=O)N[C@@H](CCC(=O)O)C(=O)N[C@@H](CC(=O)O)C(=O)O; target = RASA1 SH2 domains; test = binding; Kd = 0.103 µM
Structure (SMILES) = CC(C)C[C@H](NC(=O)[C@H](CC(=O)O)NC(=O)[C@H](CO)NC(=O)[C@H](CC(=O)O)NC(=O)[C@H](CO)NC(=O)CNC(=O)[C@H](C)NC(=O)[C@@H](N)Cc1ccc(O)cc1)C(=O)N[C@@H](CC(=O)O)C(=O)N[C@H](C(=O)N[C@@H](CC(=O)O)C(=O)N[C@@H](CC(=O)O)C(=O)N[C@@H](CCC(=O)O)C(=O)N[C@@H](Cc1ccccc1)C(=O)N[C@H](C(=O)N1CCC[C@H]1C(=O)N[C@@H](Cc1ccc(O)cc1)C(=O)O)C(C)C)[C@@H](C)OP(=O)(O)O; target = PIH1 domain-containing protein 1, residues 1-180 (PIH1D1, Homo sapiens, UniProt Q9NWS0); test = ITC; conditions = pH 8.0, 20 °C, added: phosphopeptide; Kd = 15 ± 1.5 µM
Structure (SMILES) = CC[C@H](C)[C@H](NC(=O)c1ccc2c(c1)C(=O)OC21c2ccc(N(C)C)cc2Oc2cc(N(C)C)ccc21)C(=O)N[C@@H](CCC(=O)O)C(=O)N[C@@H](CO)C(=O)N[C@@H](CO)C(=O)N[C@@H](CC(N)=O)C(=O)N[C@@H](Cc1ccc(O)cc1)C(=O)N[C@@H](CCSC)C(=O)N[C@@H](C)C(=O)N1CCC[C@H]1C(=O)N[C@@H](Cc1ccc(OP(=O)(O)O)cc1)C(=O)N[C@@H](CC(=O)O)C(=O)N[C@@H](CC(N)=O)C(=O)N[C@@H](Cc1ccc(O)cc1)C(=O)N[C@H](C(=O)N1CCC[C@H]1C(=O)N[C@@H](CO)C(=O)N[C@@H](C)C(=O)N[C@@H](CC(=O)O)C(=O)O)C(C)C; target = STAT1 SH2 domain; test = binding; Kd = 0.978 µM
Structure (SMILES) = CC[C@H](C)[C@H](NC(=O)[C@H](Cc1c[nH]c2ccccc12)NC(=O)[C@H](C)NC(=O)[C@H](C)NC(=O)[C@H](Cc1ccc(O)cc1)NC(=O)[C@@H](N)CO)C(=O)N[C@@H](CC(=O)O)C(=O)N[C@@H](CO)C(=O)N[C@H](C(=O)N[C@@H](CC(C)C)C(=O)N[C@@H](C)C(=O)O)C(C)C; target = Serine protease HTRA1 PDZ domain; test = isothermal titration calorimetry; test system = isolated PDZ domain; conditions = pH 8.0; Kd = 4.1 µM

Excerpt of the above:
Structure (SMILES) = CSCC[C@H](NC(=O)[C@H](Cc1ccc(OP(=O)(O)O)cc1)NC(=O)CNC(=O)CNC(=O)[C@H](CC(=O)O)NC(=O)[C@H](CO)NC(=O)[C@H](CCC(=O)O)NC(=O)CNC(=O)[C@@H](NC(=O)[C@H](CC(C)C)NC(=O)[C@H](CO)NC(=O)c1ccc2c(c1)C(=O)OC21c2ccc(N(C)C)cc2Oc2cc(N(C)C)ccc21)[C@@H](C)O)C(=O)N[C@@H](CC(=O)O)C(=O)N[C@@H](CCSC)C(=O)N[C@@H](CO)C(=O)N[C@@H](CCCCN)C(=O)N[C@@H](CC(=O)O)C(=O)N[C@@H](CCC(=O)O)C(=O)N[C@@H](CC(=O)O)C(=O)O; target = RASA1 SH2 domains; test = binding; Kd = 0.103 µM
